Measurements collected from several papers.
Protocols differ between the studies behind these lines. ± gives the spread as reported. In brackets after ≈: the same amount, converted by molar mass.

| Structure (SMILES) | test | system | conditions | how to read | quantity | result |
| --- | --- | --- | --- | --- | --- | --- |
| CO[C@H]1C[C@@H]2CC[C@@H](C)[C@@](O)(O2)C(=O)C(=O)N2CCCC[C@H]2C(=O)O[C@H]([C@H](C)C[C@@H]2CC[C@@H](OC(=O)NCCOCCOCCOCCOCCOCCOCCOCCOCCC(=O)N3CCc4cc(Cn5nc(-c6ccc7oc(N)nc7c6)c6c(N)ncnc65)ccc4C3)[C@H](OC)C2)C[C@@H](O)[C@H](C)/C=C(\C)[C@@H](O)[C@@H](OC)C(=O)[C@H](C)C[C@H](C)/C=C/C=C/C=C/1C | phase 1 dose escalation, measured: fatigue | advanced solid tumour patients | intravenous, 16 mg weekly, grade ≥3 |  | dose-reducing adverse events | 0% |
| CC[C@H](C)[C@H](N)C(=O)N[C@@H](CCCNC(=N)N)C(=O)N[C@H](C(=O)N[C@@H](Cc1c[nH]c2ccccc12)C(=O)N[C@@H](Cc1ccccc1)C(=O)N[C@H](C(=O)N[C@@H](CCCCN)C(=O)N[C@H](C(=O)N[C@@H](CCCNC(=N)N)C(=O)N[C@@H](CCCCN)C(=O)N[C@@H](Cc1c[nH]c2ccccc12)C(=O)N[C@@H](CCCCN)C(=O)N[C@@H](C)C(=O)N[C@H](C(=O)N[C@@H](Cc1ccc(O)cc1)C(=O)N[C@@H](Cc1c[nH]cn1)C(=O)N[C@H](C(N)=O)[C@@H](C)O)[C@@H](C)CC)C(C)C)[C@@H](C)CC)C(C)C | reversed-phase UPLC | C18 column, TFA |  |  | elution acetonitrile content | 43.1% |
| C[C@@H](NC(=O)N1C(=O)[C@H](Cc2ccnc(N)c2)[C@H]1C(=O)O)C1CCCCC1 |  | healthy Chinese adult volunteers | continuous intravenous infusion, dose not given, 5.0 days, CTCAE 5.0, all doses |  | urine erythrocyte positive | 2.5% |
| CCCCCOc1ccc(-c2ccc(-c3ccc(C(=O)N[C@H]4C[C@@H](O)[C@@H](OCC[N+](C)(C)C)NC(=O)[C@@H]5[C@@H](O)[C@@H](C)CN5C(=O)[C@H]([C@@H](C)O)NC(=O)[C@H]([C@H](O)[C@@H](O)c5ccc(O)cc5)NC(=O)[C@@H]5C[C@@H](O)CN5C(=O)[C@H]([C@@H](C)O)NC4=O)cc3)cc2)cc1 |  | adult ICU patients, mITT, serum | dose not given, Baseline |  | alkaline phosphatase | 131 U/L |
| O=C(O)CCCOc1ccc(F)cc1-c1cc(-c2ccccc2C(F)(F)F)n(-c2ccccc2)n1 | measured: ALT | Crl:CD(SD) rats, male, serum | iv, 25 µg/kg, 14 days |  | serum enzyme activity | 34.7 ± 3.9 U/L |
| COc1cccc2c1CCCC2CCCN1CCN(C2CCCCC2)CC1 (stereo not drawn) |  | CD-1 mouse, male, lung | intraperitoneal, 10 mg/kg |  | half-life | 3.63 h |
| COc1ncccc1-c1cnn2ccc(N3CCN(C(=O)OC(C)C)CC3)nc12 |  | mouse nerve ligation model, plasma | oral, 10 mg/kg, 120 min after last dose, repeat dosing day 2 |  | drug concentration | 2400 nM |
| O[C@H]1CCCN[C@@H]1CCCn1cnc2c(Cl)c(Cl)ccc21 |  | healthy human | oral, 150 mg multiple doses |  | nausea prevalence | 8.33% |
| C[C@@H]1OC(=O)NN=C1c1ccc(-c2ccc(F)cc2)c(C(F)(F)F)c1 | phase I trial, measured: Fatigue all grades | human patients | 5 mg once daily |  | patients with adverse event | 0% |
| CC[C@H](C)CCCCC(=O)N[C@@H](CCN)C(=O)N[C@H](C(=O)N[C@@H](CCN)C(=O)N[C@H]1CCNC(=O)[C@H]([C@@H](C)O)NC(=O)[C@H](CCN)NC(=O)[C@H](CCN)NC(=O)[C@H](CC(C)C)NC(=O)[C@@H](Cc2ccccc2)NC(=O)[C@H](CCN)NC1=O)[C@@H](C)O |  | human, critically ill, no AKI, plasma | intravenous, dose not given, mean |  | clearance | 1.45 L/h |
| C[C@]1(CO)Cc2ncn(-c3ccc(C#N)c(Cl)c3)c2C(=O)O1 |  | human, plasma | 20 mg single dose, median |  | tmax | 1.5 h |
| Oc1c(Cl)cc2c(c1Cl)Oc1cc(Cl)c(Cl)cc1O2 |  | cow whole milk | 20 nM | baseline: milk fat over skim milk | milk fat partition ratio | 24.4 |
| C=CC(=O)Nc1cc(Nc2nccc(Nc3cc(Cl)c(F)cc3C(C)(C)O)n2)c(OC)cc1N1CC[C@@H](N(C)C)C1 |  | human patients | oral, 400 mg, treatment-emergent adverse events |  | patients with mouth ulceration | 20% |
| O.O.O.O.O.O.[Cl-].[Cl-].[Co+2] |  | Crl:CD(SD) rat female, blood | oral, 2.48 mg Co/kg/day, 90 days |  | red blood cell count | 8.11 ×10E6/µl |
| Cn1cncc1-c1c(F)cncc1NC(=O)c1c(N)nn2cc(F)cnc12 |  | human patients | oral, 80 mg once daily |  | grade ≥3 hyponatraemia incidence | 0% |
| CCCC[C@@H]1NC(=O)[C@H](Cc2ccc(O)cc2)NC(=O)[C@@H]2CCCN2C(=O)[C@H](CC(=O)O)NC(=O)[C@H](C)NC(=O)[C@H](Cc2ccccc2)NC(=O)[C@@H]2CSCCC(=O)N3CN(CN(C3)C(=O)CCSC[C@@H](C(=O)N[C@@H](C)C(N)=O)NC1=O)C(=O)CCSC[C@H](NC(=O)[C@H](C)NC(C)=O)C(=O)N[C@@H]([C@@H](C)CC)C(=O)N[C@@H](CCC(=O)O)C(=O)N[C@@H](CCC(=O)O)C(=O)N[C@H](CCCCNC(=O)CCc1cn(CCOCCOCCOCCN(CCOCCOCCOCCC(=O)N[C@H]3CSCCC(=O)N4CN5CN(C4)C(=O)CCSC[C@H](NC(=O)[C@@H](CC(=O)O)NC(=O)[C@H](Cc4cccc6ccccc46)NC(=O)[C@@H]4CCCN4C3=O)C(=O)N[C@@H](CCSC)C(=O)N[C@@H](CCCCNC(=N)N)C(=O)N[C@@H](CC(=O)O)C(=O)N[C@@H](Cc3c[nH]c4ccccc34)C(=O)N[C@@H](CO)C(=O)N[C@@H]([C@@H](C)O)C(=O)N3CCC[C@H]3C(=O)N3C[C@H](O)C[C@H]3C(=O)N[C@@H](Cc3c[nH]c4ccccc34)C(=O)N[C@H](C(N)=O)CSCCC5=O)CCOCCOCCOCCn3cc(CCC(=O)NCCCC[C@H]4NC(=O)[C@H](CCC(=O)O)NC(=O)[C@H](CCC(=O)O)NC(=O)[C@H]([C@@H](C)CC)NC(=O)[C@@H](NC(=O)[C@H](C)NC(C)=O)CSCCC(=O)N5CN6CN(C5)C(=O)CCSC[C@H](NC(=O)[C@H](Cc5ccc(O)cc5)NC(=O)[C@H](CCC(N)=O)NC4=O)C(=O)N[C@@H](Cc4ccccc4)C(=O)N[C@@H](C)C(=O)N[C@@H](CC(=O)O)C(=O)N4CCC[C@H]4C(=O)N[C@@H](Cc4ccc(O)cc4)C(=O)N[C@@H](CCCC)C(=O)N[C@H](C(=O)N[C@@H](C)C(N)=O)CSCCC6=O)nn3)nn1)C(=O)N[C@@H](CCC(N)=O)C(=O)N[C@@H](Cc1ccc(O)cc1)C(=O)N2 |  | Sprague-Dawley rat |  |  | unbound clearance | 49 mL/min/kg |
| CC(C)(c1ccccc1)c1cc(-n2nc3ccccc3n2)c(O)c(C(C)(C)c2ccccc2)c1 | exposure assessment | human, age 16-21 years | sunscreen |  | mean daily dermal uptake | 0.41 ng/kg body weight/day |
| CC(C)Nc1ccnc(Nc2cccc(-c3cccnc3)c2)n1 | measured: alkaline phosphatase | mouse, blood | intraperitoneal, 3 mg/kg |  | blood chemistry | 144 U/L |
| O=C(Nc1ccccc1)C1CCN(C(=O)Oc2cccnc2)CC1 |  | healthy women | oral, 20 mg, 7 days |  | adverse event Dizziness | 14.3% |
| COc1cc(Nc2ncc(F)c(Nc3ccc4c(n3)NC(=O)C(C)(C)O4)n2)cc(OC)c1OC |  | non-kinase assay buffer | 3 h, pH 7.5, 1% DMSO |  | solubility | 1.8 µM (≈ 0.847 µg/mL) |
| CC(C)C[C@H](NC(=O)[C@H](CCCCN)NC(=O)OCC1c2ccccc2-c2ccccc21)C(=O)N[C@H](C(=O)N[C@@H](Cc1ccccc1)C(=O)N[C@@H](Cc1ccccc1)C(=O)N[C@@H](CCCCN)C(=O)NCC(=O)N[C@@H](Cc1ccccc1)C(=O)N[C@@H](C)C(=O)N[C@@H](Cc1c[nH]c2ccccc12)C(=O)N[C@@H](CC(N)=O)C(=O)N[C@H](C(=O)N[C@H]1CSSC[C@@H](C(=O)N[C@@H](Cc2c[nH]cn2)C(=O)N[C@@H](CCCNC(=N)N)C(=O)N[C@@H](CCCNC(=N)N)C(=O)N[C@@H](C)C(=O)N[C@@H](CC(N)=O)C(N)=O)NC(=O)[C@H](C(C)C)NC(=O)[C@H](CCCNC(=N)N)NC(=O)[C@H](C(C)C)NC(=O)CNC(=O)[C@H](CC(N)=O)NC(=O)[C@H](CCCNC(=N)N)NC(=O)[C@H](Cc2ccc(O)cc2)NC(=O)[C@H](C(C)C)NC1=O)C(C)C)C(C)C |  | ICR mouse, blood | intramammary, 5 mg/kg, day 5, 3 d dosing |  | globulin | 18.71 ± 0.17 g/L |
| C[C@@H](c1nc(-c2ccc(C#N)cc2)cs1)[C@](O)(Cn1cncn1)c1cc(F)ccc1F | measured: blood creatinine increased | humans | oral, dose not given, with: midazolam |  | subjects with TEAEs | 8.7% |
| C=CC(=O)N1CC[C@H](n2nc(C#Cc3cc(OC)cc(OC)c3)c3c(N)ncnc32)C1 |  | patients with advanced solid tumours | oral, dose not given, Diarrhea, any grade, QD, with: sevelamer hydrochloride |  | adverse drug reaction incidence | 13.6% |
| Clc1ccc(Cl)c(-c2cc(Cl)ccc2Cl)c1 |  | Sprague Dawley rat, liver | intraperitoneal, 1 mg/kg |  | organ weight | 7.31 g |
| CCc1ccc(CC/C=C/c2ccc3c(c2)C(=O)CC3)cc1 |  | Sprague-Dawley rat, female, blood | oral, 120 mg/kg/day, 14 days |  | mean platelet volume | 10.9 fL |
| COc1cc2c(Oc3ccc4[nH]c(C)cc4c3F)ccnc2cc1OCC1(N)CC1 |  | paediatric recurrent refractory sarcoma | 10 mg |  | grade 3 abdominal distension | 0% |
| CC[C@H](C)[C@H](NC(=O)[C@H](Cc1ccccc1)NC(=O)[C@H](CCC(=O)O)NC(=O)[C@H](CCCCNC(=O)COCCOCCNC(=O)COCCOCCNC(=O)CC[C@H](NC(=O)CCCCCCCCCCCCCCCCC(=O)O)C(=O)O)NC(=O)[C@H](C)NC(=O)[C@H](C)NC(=O)[C@H](CCC(N)=O)NC(=O)CNC(=O)[C@H](CCC(=O)O)NC(=O)[C@H](CC(C)C)NC(=O)[C@H](Cc1ccc(O)cc1)NC(=O)[C@H](CO)NC(=O)[C@H](CO)NC(=O)[C@@H](NC(=O)[C@H](CC(=O)O)NC(=O)[C@H](CO)NC(=O)[C@@H](NC(=O)[C@H](Cc1ccccc1)NC(=O)[C@@H](NC(=O)CNC(=O)[C@H](CCC(=O)O)NC(=O)C(C)(C)NC(=O)[C@@H](N)Cc1cnc[nH]1)[C@@H](C)O)[C@@H](C)O)C(C)C)C(=O)N[C@@H](C)C(=O)N[C@@H](Cc1c[nH]c2ccccc12)C(=O)N[C@@H](CC(C)C)C(=O)N[C@H](C(=O)N[C@@H](CCCNC(=N)N)C(=O)NCC(=O)N[C@@H](CCCNC(=N)N)C(=O)NCC(=O)O)C(C)C |  | healthy men and women | oral, 14 mg once daily, with SNAC, geometric mean |  | AUC(0-24h) at steady state | 0.554 µM·h |
| C=CCNc1c(O)cc2c(O)c1C[C@@H](C)C[C@H](OC)[C@H](O)[C@@H](C)/C=C(\C)[C@H](OC(N)=O)[C@@H](OC)/C=C\C=C(/C)C(=O)N2 |  | unresectable or metastatic STS, GIST, other | intravenous, 225 mg/m^2 |  | patients with back pain TEAE | 33% |
| CN1CC[C@@H](c2c(O)cc(O)c3c(=O)cc(-c4ccc(C(F)(F)F)cc4Cl)oc23)[C@@H]1CO | measured: Syncope | relapsed AML | oral, 100 mg, grade 3-4, intermittent dosing |  | patients with adverse event | 0% |
| NC(=O)[C@H]1CCN(c2ncnc(N)c2F)C[C@@H]1N1CCC[C@@H](Nc2cc(Cl)cc(C(F)(F)F)c2)C1=O |  | B-cell malignancy patients | oral, 41 mg twice daily, dose |  | grade ≥3 platelet decrease | 0% |

For quick reference, copied from above:
| Structure (SMILES) | test | system | conditions | how to read | quantity | result |
| --- | --- | --- | --- | --- | --- | --- |
| CC[C@H](C)[C@H](NC(=O)[C@H](Cc1ccccc1)NC(=O)[C@H](CCC(=O)O)NC(=O)[C@H](CCCCNC(=O)COCCOCCNC(=O)COCCOCCNC(=O)CC[C@H](NC(=O)CCCCCCCCCCCCCCCCC(=O)O)C(=O)O)NC(=O)[C@H](C)NC(=O)[C@H](C)NC(=O)[C@H](CCC(N)=O)NC(=O)CNC(=O)[C@H](CCC(=O)O)NC(=O)[C@H](CC(C)C)NC(=O)[C@H](Cc1ccc(O)cc1)NC(=O)[C@H](CO)NC(=O)[C@H](CO)NC(=O)[C@@H](NC(=O)[C@H](CC(=O)O)NC(=O)[C@H](CO)NC(=O)[C@@H](NC(=O)[C@H](Cc1ccccc1)NC(=O)[C@@H](NC(=O)CNC(=O)[C@H](CCC(=O)O)NC(=O)C(C)(C)NC(=O)[C@@H](N)Cc1cnc[nH]1)[C@@H](C)O)[C@@H](C)O)C(C)C)C(=O)N[C@@H](C)C(=O)N[C@@H](Cc1c[nH]c2ccccc12)C(=O)N[C@@H](CC(C)C)C(=O)N[C@H](C(=O)N[C@@H](CCCNC(=N)N)C(=O)NCC(=O)N[C@@H](CCCNC(=N)N)C(=O)NCC(=O)O)C(C)C |  | healthy men and women | oral, 14 mg once daily, with SNAC, geometric mean |  | AUC(0-24h) at steady state | 0.554 µM·h |
| C=CCNc1c(O)cc2c(O)c1C[C@@H](C)C[C@H](OC)[C@H](O)[C@@H](C)/C=C(\C)[C@H](OC(N)=O)[C@@H](OC)/C=C\C=C(/C)C(=O)N2 |  | unresectable or metastatic STS, GIST, other | intravenous, 225 mg/m^2 |  | patients with back pain TEAE | 33% |
| CN1CC[C@@H](c2c(O)cc(O)c3c(=O)cc(-c4ccc(C(F)(F)F)cc4Cl)oc23)[C@@H]1CO | measured: Syncope | relapsed AML | oral, 100 mg, grade 3-4, intermittent dosing |  | patients with adverse event | 0% |
